Measurements of several laboratories.
Each line is one published result; not all experiments were run side by side. Several values in a cell are separate wells, animals, samples, runs or records. ± marks the error that the study gave.
DRD5: D(1B) dopamine receptor (DRD5, Homo sapiens, UniProt P21918)
UniProt P21918, sequence (whole entry, looked up): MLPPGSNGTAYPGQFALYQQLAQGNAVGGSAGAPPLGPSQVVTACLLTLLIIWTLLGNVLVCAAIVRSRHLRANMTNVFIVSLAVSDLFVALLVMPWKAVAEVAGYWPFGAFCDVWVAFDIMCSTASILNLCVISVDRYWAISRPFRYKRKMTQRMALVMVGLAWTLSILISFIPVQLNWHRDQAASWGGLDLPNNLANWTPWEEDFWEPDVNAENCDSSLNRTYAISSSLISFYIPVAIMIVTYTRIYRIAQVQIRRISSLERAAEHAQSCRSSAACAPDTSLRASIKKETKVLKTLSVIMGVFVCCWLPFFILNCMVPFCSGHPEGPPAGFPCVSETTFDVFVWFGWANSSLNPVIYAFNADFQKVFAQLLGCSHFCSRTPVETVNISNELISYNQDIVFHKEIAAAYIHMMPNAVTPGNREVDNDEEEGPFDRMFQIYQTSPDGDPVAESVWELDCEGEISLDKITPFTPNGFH
HTR1A: 5-hydroxytryptamine receptor 1A (HTR1A, Homo sapiens, UniProt P08908)
UniProt P08908, sequence (whole entry, looked up): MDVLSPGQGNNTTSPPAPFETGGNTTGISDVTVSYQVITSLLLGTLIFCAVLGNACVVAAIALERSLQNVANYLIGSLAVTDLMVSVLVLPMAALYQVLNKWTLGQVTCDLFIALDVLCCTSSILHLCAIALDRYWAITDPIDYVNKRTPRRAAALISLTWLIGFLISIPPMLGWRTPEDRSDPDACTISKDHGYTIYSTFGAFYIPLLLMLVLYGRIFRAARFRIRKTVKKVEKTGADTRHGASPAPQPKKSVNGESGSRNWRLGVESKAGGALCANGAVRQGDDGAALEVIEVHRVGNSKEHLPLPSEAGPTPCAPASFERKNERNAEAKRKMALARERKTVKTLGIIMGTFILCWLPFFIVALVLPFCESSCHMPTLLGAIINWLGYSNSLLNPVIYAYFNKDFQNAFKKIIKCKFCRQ
Urease subunit alpha: Urease subunit alpha (Sporosarcina pasteurii, UniProt P41020)
UniProt P41020, sequence (whole entry, looked up): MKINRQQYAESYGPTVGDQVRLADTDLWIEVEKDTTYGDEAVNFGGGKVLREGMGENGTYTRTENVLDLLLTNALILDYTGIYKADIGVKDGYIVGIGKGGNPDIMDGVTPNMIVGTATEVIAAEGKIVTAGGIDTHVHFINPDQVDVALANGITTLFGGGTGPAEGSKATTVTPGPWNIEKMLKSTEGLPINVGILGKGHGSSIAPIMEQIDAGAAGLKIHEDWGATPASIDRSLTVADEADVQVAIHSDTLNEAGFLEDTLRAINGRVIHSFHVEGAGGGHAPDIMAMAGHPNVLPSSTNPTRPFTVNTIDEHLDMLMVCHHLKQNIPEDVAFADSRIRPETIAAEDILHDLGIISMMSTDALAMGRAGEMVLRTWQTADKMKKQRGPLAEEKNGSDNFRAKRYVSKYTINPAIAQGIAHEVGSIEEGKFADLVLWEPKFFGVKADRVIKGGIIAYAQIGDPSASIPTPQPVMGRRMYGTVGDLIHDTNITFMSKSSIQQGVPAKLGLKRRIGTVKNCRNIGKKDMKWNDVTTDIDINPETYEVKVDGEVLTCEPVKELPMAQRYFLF
HTR4: 5-hydroxytryptamine receptor 4 (HTR4, Homo sapiens, UniProt Q13639)
UniProt Q13639, sequence (whole entry, looked up): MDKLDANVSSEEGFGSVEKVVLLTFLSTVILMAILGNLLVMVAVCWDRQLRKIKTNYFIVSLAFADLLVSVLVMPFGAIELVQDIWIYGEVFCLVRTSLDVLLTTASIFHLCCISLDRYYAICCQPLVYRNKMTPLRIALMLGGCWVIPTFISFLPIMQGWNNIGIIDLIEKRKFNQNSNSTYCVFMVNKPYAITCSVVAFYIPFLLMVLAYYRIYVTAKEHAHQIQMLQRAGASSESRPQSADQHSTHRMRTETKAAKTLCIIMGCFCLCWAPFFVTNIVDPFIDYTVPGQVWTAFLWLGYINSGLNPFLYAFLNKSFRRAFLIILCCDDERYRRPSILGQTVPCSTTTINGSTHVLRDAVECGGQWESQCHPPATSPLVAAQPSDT
MAL12: Alpha-glucosidase MAL12 (MAL12, Saccharomyces cerevisiae S288c, UniProt P53341)
UniProt P53341, sequence (whole entry, looked up): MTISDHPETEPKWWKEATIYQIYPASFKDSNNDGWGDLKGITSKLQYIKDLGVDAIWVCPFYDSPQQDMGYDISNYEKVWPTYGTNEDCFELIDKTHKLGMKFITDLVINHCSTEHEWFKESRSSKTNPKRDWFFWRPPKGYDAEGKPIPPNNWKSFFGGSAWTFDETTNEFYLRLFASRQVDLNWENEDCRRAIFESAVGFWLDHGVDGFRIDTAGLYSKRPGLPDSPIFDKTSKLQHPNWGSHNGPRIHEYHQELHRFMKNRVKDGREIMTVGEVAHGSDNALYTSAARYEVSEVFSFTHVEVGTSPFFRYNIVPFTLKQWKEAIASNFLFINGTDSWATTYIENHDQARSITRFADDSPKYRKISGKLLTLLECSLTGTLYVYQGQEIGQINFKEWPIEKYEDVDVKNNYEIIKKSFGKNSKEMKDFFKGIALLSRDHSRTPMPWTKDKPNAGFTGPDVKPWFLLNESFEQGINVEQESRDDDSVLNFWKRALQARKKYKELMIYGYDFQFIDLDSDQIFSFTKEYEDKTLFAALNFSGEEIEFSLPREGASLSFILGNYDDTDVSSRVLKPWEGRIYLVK
MAP2K1: Dual specificity mitogen-activated protein kinase kinase 1 (MAP2K1, Homo sapiens, UniProt Q02750)
UniProt Q02750, sequence (whole entry, looked up): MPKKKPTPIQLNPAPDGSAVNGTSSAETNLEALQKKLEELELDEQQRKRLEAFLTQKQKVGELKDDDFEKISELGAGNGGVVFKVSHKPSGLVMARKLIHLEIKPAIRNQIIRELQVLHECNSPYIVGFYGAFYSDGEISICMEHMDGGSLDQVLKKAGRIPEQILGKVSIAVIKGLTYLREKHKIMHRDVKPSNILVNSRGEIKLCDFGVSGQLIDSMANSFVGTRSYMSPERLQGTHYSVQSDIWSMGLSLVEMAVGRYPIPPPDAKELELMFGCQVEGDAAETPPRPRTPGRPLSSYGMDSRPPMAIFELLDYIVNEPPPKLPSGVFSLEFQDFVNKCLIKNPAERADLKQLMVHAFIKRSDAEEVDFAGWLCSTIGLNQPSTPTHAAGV
Nuclear receptor subfamily 2 group C member 2 ligand-binding domain: Nuclear receptor subfamily 2 group C member 2, ligand-binding domain (Homo sapiens, UniProt P49116)
UniProt Q8IWT6, sequence (whole entry, unmodified, looked up): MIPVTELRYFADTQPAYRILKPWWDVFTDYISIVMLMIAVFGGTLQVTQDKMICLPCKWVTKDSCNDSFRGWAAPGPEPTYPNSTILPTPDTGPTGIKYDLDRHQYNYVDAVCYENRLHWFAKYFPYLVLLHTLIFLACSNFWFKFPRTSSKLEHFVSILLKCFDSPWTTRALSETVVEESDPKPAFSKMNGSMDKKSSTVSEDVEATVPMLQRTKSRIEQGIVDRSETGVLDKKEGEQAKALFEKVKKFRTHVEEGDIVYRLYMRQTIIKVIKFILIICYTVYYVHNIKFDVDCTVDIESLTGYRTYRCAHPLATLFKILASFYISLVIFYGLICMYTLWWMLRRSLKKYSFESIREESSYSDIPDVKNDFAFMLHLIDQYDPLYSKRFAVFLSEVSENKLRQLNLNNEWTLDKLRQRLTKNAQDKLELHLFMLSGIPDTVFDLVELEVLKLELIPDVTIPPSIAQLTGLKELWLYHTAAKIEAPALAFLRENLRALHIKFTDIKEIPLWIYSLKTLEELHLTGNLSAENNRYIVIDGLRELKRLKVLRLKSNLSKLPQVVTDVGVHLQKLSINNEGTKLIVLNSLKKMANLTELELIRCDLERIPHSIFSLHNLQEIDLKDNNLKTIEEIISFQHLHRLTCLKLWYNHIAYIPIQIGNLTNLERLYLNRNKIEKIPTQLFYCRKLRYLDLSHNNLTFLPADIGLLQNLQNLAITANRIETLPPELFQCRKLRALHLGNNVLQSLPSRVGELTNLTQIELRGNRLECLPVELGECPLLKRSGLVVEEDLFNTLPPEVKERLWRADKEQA
UniProt P49116, sequence (whole entry, looked up): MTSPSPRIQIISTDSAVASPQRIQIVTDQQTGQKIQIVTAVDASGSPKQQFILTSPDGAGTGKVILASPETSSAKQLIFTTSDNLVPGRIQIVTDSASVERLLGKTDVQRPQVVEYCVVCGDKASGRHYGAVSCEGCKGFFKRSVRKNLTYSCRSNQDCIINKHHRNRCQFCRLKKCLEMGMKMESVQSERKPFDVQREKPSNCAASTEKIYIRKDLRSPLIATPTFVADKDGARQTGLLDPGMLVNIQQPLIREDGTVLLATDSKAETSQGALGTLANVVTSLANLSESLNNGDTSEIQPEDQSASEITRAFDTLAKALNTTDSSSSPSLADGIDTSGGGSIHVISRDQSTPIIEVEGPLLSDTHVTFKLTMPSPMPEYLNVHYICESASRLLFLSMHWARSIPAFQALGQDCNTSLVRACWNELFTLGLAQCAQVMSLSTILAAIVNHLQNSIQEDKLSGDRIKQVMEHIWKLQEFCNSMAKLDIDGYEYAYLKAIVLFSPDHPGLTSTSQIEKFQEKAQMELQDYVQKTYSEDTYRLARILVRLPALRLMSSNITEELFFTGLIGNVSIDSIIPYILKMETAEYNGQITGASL
UniProt O14920, sequence (whole entry, looked up): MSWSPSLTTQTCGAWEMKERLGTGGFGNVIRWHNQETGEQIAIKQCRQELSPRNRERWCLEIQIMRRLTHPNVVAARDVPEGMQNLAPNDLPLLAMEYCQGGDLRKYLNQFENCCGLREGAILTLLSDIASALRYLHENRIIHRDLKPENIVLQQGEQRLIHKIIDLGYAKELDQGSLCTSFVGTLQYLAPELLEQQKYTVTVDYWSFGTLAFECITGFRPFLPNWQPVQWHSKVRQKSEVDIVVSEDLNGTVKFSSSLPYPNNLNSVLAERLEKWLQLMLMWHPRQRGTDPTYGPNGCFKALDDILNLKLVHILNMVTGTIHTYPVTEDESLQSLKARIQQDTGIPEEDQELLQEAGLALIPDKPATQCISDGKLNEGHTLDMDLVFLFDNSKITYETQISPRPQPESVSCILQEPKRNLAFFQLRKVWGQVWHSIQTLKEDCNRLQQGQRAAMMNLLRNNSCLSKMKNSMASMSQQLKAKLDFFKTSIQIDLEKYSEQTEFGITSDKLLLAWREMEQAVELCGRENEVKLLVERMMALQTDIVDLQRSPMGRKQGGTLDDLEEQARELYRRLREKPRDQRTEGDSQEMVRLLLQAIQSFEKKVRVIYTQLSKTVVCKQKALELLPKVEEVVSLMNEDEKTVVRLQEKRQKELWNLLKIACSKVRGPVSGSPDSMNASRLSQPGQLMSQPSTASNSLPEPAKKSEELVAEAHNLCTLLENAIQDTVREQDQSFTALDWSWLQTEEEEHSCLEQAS

| SMILES | target | test | system | conditions | how to read | endpoint | value |
| --- | --- | --- | --- | --- | --- | --- | --- |
| O=C(NO)c1ccc(CN2CCCCc3ccccc32)c(F)c1 | DRD5 | radioligand binding, radioligand displacement |  | 10 µM |  | inhibition | -13.7% |
| CN1CCN(c2cc(-c3ccncc3)c(-c3ccc4ccccc4c3)nn2)CC1 | Thyrotropin-releasing hormone receptor (TRHR, Homo sapiens, UniProt P34981) | antagonist, FLIPR |  | 10 µM |  | inhibition | 32% |
| N#Cc1ccc([C@H]2CCc3cncn32)c(F)c1 | Cytochrome P450 4V2 (CYP4V2, Homo sapiens, UniProt Q6ZWL3) |  |  | 1 µM |  | inhibition | 36 ± 19% |
| Cc1cc(-c2ccnc3[nH]cc(F)c23)cc(F)c1[C@@]1(O)[C@H](C)CN(C2CCS(=O)(=O)CC2)C[C@@H]1C | AKT2 and AKT3 | ATP probe binding, KiNativ, refers to: ATP loop | HEK293T cell lysate | 10 µM |  | inhibition | -60.5% |
| Cn1cc(-c2cnc3ccc(NC(=O)Nc4ccc(F)c(Br)c4)cc3n2)cn1 | Inhibitor of nuclear factor kappa-B kinase subunit beta (IKBKB, Homo sapiens, UniProt O14920) | kinase binding, KiNativ profiling, refers to: Lys2 peptide | PANC-1 lysate | 2.5 µM |  | inhibition | 7.5% |
| COc1cc(C(=O)NS(=O)(=O)c2ccccc2C)ccc1Cc1cn(C)c2ccc(NC(=O)OC3CCCC3)cc12 | LRRC8A/LRRC8C (Homo sapiens, UniProt Q8IWT6+Q8TDW0, L134K/L136K) | ion current, whole-cell patch clamp | HCT LRRC8-/- cells | 100 µM, +100 mV, L134K/L136K heteromers |  | inhibition | 95.6% and 88.6% and 85.2% and 97.7% |
| Cc1ncccc1OC[C@@H]1CN(CCN2CCc3ccccc32)CCO1 | HTR1A | radioligand binding |  | concentration not given, added: [3H]8-OH-DPAT |  | inhibition | 22.3% |
| Cc1ccc(C(=O)Nc2ccc3ccccc3c2)o1 | Acid-sensing ion channel 3 (Asic3, Rattus norvegicus, UniProt O35240) | ion current, whole-cell patch-clamp |  | 10 µM, rASIC3 |  | inhibition | 9.27% |
| Cc1cc2c(cc1N1C(=O)c3cccc4c(CCCO)ccc(c34)C1=O)n(C)c(=O)n2C (racemic) | Bromodomain testis-specific protein, BD1 (BRDT, Homo sapiens, UniProt Q58F21) | binding, BROMOscan binding |  | 1000 nM |  | inhibition | 91% |
| COc1ccccc1N1CCN(CCCCN2CCc3ccccc3C2=O)CC1 | HTR1A | radioligand binding |  | concentration not given, added: [3H]8-OH-DPAT |  | inhibition | 101% |
| COc1cccc(NC(=S)N/N=C/C=C/c2ccc(F)cc2)c1 | Urease subunit alpha | enzyme activity, inhibitor, indophenol method |  | concentration not given | relative to: thiourea | inhibition | inactive |
| CN(C(=O)n1cnc(-c2ccc[n+]([O-])c2)c1)C1CCCCC1 | Nitric oxide synthase 1 (Homo sapiens, UniProt P29475) |  |  | 10 µM |  | inhibition | -4.5% |
| O=C(CN1CCO[C@@H](COc2cccnc2)C1)N1CCc2ccccc21 | HTR4 | radioligand binding |  | concentration not given |  | inhibition | 3.6% |
| C[C@H](CCC(C)(C)O)[C@H]1CC[C@H]2[C@@H]3CC=C4C[C@@](C)(O)CC[C@]4(C)[C@H]3CC[C@]12C | Glutamate NMDA receptor; GRIN1/GRIN2B (GRIN1/GRIN2B, Homo sapiens, UniProt Q05586+Q13224) | proton inhibition of current, two-electrode voltage clamp | Xenopus oocytes | concentration not given, current ratio pH 6.8 over pH 7.6, added: positive allosteric modulator 10 µM |  | inhibition | 41 ± 4.1% |
| Oc1ccccc1Cn1cccn1 | MAL12 | inhibitor |  | 25 µM |  | inhibition | < 0% |
| O=C1c2ccccc2CCN1CCCCN1CCN(c2ccccn2)CC1 | HTR4 | radioligand binding |  | concentration not given |  | inhibition | 10.7% |
| COc1ccc(F)cc1C(=O)NCc1ccc(-c2nn([C@@H](C)C(F)(F)F)c(N)c2C(N)=O)cc1 | MAP2K1 | target engagement, competitive chemoproteomics | human PBMCs | 0.1 µM |  | inhibition | -14.1% |

| SMILES | target | test | system | conditions | how to read | endpoint | value |
| --- | --- | --- | --- | --- | --- | --- | --- |
| O=C(Nc1cccc2c(=O)cc(-c3nnn[nH]3)oc12)c1ccc(OCCCCc2ccccc2)cc1 | Volume-regulated anion channel subunit LRRC8C, part LRRC8A IL1 chimera (LRRC8C, Homo sapiens, UniProt Q8TDW0, E6A) | ion current, inhibitor, whole-cell patch clamp | HCT116 LRRC8 knockout, transfected | 10 µM, at +100 mV |  | inhibition | 80.5% |
| C[C@H]1C(=O)/C(=C/c2ccccc2)[C@H]2C[C@@H]1N(Cc1ccccc1)C[C@@]2(C)O | Mu-type opioid receptor (Cavia porcellus, UniProt A0ACM8Q262) | binding, radioligand binding | guinea pig brain membranes | 1 µM, added: [3H]DAMGO |  | inhibition | 0% |
| C[C@@H]1CCO[C@H]2Cn3cc(C(=O)NCc4ccc(F)cc4F)c(=O)c(O)c3C(=O)N12 | Equilibrative nucleoside transporter 4 (SLC29A4, Homo sapiens, UniProt Q7RTT9) | transporter uptake, inhibitor, refers to: [14C]MPP+ uptake | MDCK-II transfected with PMAT | up to 100 µM, added: [14C]MPP+ 10 µM |  | inhibition | no inhibition |
| NC/C(=C\F)COc1cccc(Cn2c(=S)[nH]c(=O)c3[nH]cnc32)c1 | rabbit P2X receptor | radioligand binding |  | 10 µM |  | inhibition | < 50% |
| Cc1nn(-c2nc3c(F)cc(F)cc3s2)c(O)c1C(c1cccc(C(F)(F)F)c1)c1c(C)nn(-c2nc3c(F)cc(F)cc3s2)c1O | Cyclic GMP-AMP synthase (CGAS, Homo sapiens, UniProt Q8N884) | enzyme activity, inhibitor, pyrophosphatase-coupled |  | 50 µM, 1.5 h, added: HT-DNA |  | inhibition | 72.9% |
| CC[C@@H]1[C@H](F)C(=O)N[C@@H]1COc1nccc2cc(C(N)=O)c(OC)cc12 | MAP2K1 | ATP-site probe binding, ActivX profiling | THP-1 cell lysate | 0.01 mM, Lys2 site |  | inhibition | -1.6% |
| Cc1ccc(OC[C@H]2CN(CCN3CCc4ccccc43)CCO2)cn1 | DRD5 | radioligand binding |  | concentration not given, added: [3H]SCH23390 |  | inhibition | 3.5% |
| O=c1c(-c2ccc3c(c2)OCO3)coc2c(Cn3cccn3)c(O)ccc12 | MAL12 | inhibitor |  | 25 µM |  | inhibition | 14.4% |
| Fc1ccc(/C=C/C=N/NC(=S)Nc2cccc(Cl)c2Cl)cc1 | Urease subunit alpha | enzyme activity, indophenol method |  | 500 µM |  | inhibition | 82.3% |
| c1ccc(OC[C@@H]2CN(CCN3CCc4ccccc43)CCO2)cc1 | HTR4 | radioligand binding |  | concentration not given |  | inhibition | 10.6% |
| Cc1cc(-c2ccnc3[nH]cc(F)c23)cc(F)c1[C@@]1(O)[C@H](C)CN(C(=O)CN)C[C@@H]1C | AKT2 and AKT3 | ATP probe binding, KiNativ, refers to: ATP loop | HEK293T cell lysate | 0.1 µM |  | inhibition | -4.6% |
| c1cncc(OC[C@@H]2CN(CCN3CCc4ccccc43)CCO2)c1 | HTR1A | radioligand binding |  | concentration not given, added: [3H]8-OH-DPAT |  | inhibition | 55.3% |
| CCCNCC(O)COc1ccccc1C(=O)CCc1ccccc1 (stereo not drawn) | Nuclear receptor subfamily 2 group C member 2 ligand-binding domain | SPR imaging |  |  |  | Kd | 0.0489 nM |
| Cc1ccnc(C)c1OC[C@H]1CN(CCN2CCc3ccccc32)CCO1 | HTR1A | radioligand binding |  | concentration not given, added: [3H]8-OH-DPAT |  | inhibition | 36.3% |
| Cc1ccc(NC(=S)N/N=C/C=C/c2ccc(F)cc2)c(C)c1 | Urease subunit alpha | enzyme activity, indophenol method |  | 500 µM |  | inhibition | 88.7% |
| CCCNC(C)C(=O)Nc1ccccc1C (stereo not drawn) | Nuclear receptor subfamily 2 group C member 2 ligand-binding domain | SPR imaging |  |  |  | Kd | 1.36 nM |

Excerpt of the above:
| SMILES | target | test | system | conditions | how to read | endpoint | value |
| --- | --- | --- | --- | --- | --- | --- | --- |
| c1cncc(OC[C@@H]2CN(CCN3CCc4ccccc43)CCO2)c1 | HTR1A | radioligand binding |  | concentration not given, added: [3H]8-OH-DPAT |  | inhibition | 55.3% |
| CCCNCC(O)COc1ccccc1C(=O)CCc1ccccc1 (stereo not drawn) | Nuclear receptor subfamily 2 group C member 2 ligand-binding domain | SPR imaging |  |  |  | Kd | 0.0489 nM |
